{"data": "Measurements gathered from unrelated publications", "target": "Serine/threonine-protein kinase LATS2 (LATS2, Homo sapiens, UniProt Q9NRM7)", "note": "Protocols differ between the studies behind these lines."}
{"SMILES": "CNC1C[S+]2CC[S+]3CC[S+](C1)[Ru-4]321([N]=C=S)[n]2c3ccc(OC)cc3c3c4c(c5cc(F)c[n+]1c5c32)C(=O)NC4=O (stereo not drawn)", "test": "KinomeScan", "setting": "0.1 µM", "scale": "baseline: untreated", "quantity": "remaining binding", "result": "90%"}
{"SMILES": "O=C(Cc1ccc(OCc2ccccc2)cc1)NC1(C(=O)O)CCN(C(=O)c2ccc(-c3cccc(Cl)c3)cc2)CC1", "test": "enzyme activity, inhibitor", "setting": "10 µM", "quantity": "activity vs control", "result": "117%"}
{"SMILES": "CS(=O)(=O)Nc1cccc(-c2csc3cnc(Nc4ccc(N5CCN(CCCCCOc6cccc7c6C(=O)N(C6CCC(=O)NC6=O)C7=O)CC5)cc4)nc23)c1 (stereo not drawn)", "test": "probe labelling, inhibitor, KiNativ chemoproteomics", "test system": "MOLT-4", "setting": "1 µM", "quantity": "inhibition", "result": "21.1%"}
{"SMILES": "C=CC(=O)N1Cc2nc(-c3cc(-c4cc(Cl)cnc4Cl)c(F)cc3F)n(-c3ccncn3)c2C1", "test": "cell-free assay, inhibitor", "setting": "1 µM", "quantity": "inhibition", "result": "5.1%"}
{"SMILES": "NC(=O)C[C@H]1CCc2sc3ncnc(O[C@H]4CC[C@H](N5CCOCC5)CC4)c3c21", "test": "enzyme activity, inhibitor", "setting": "10 µM", "quantity": "inhibition", "result": "12%"}
{"SMILES": "Cc1ccc(-c2c(/C=C(\\C#N)C(=O)NC(C)C)n(CCCO)c3ncnc(N)c23)cc1", "test": "cell-free assay, competition with immobilised ligand", "setting": "1 µM", "quantity": "remaining binding", "result": "100%"}
{"SMILES": "Cc1cnc2nc1Nc1cccc(c1)COC/C=C/COCc1cc(ccc1OCCN1CCOCC1)N2", "test": "cell-free assay", "setting": "0.1 µM", "quantity": "remaining signal", "result": "96%"}
{"SMILES": "C=CC(=O)Nc1cccc(-c2cnc3[nH]cc(C(=O)NC(C)(C)C)c3n2)c1", "test": "enzyme activity, inhibitor", "setting": "0.1 µM", "quantity": "inhibition", "result": "5%"}
{"SMILES": "COc1cc(Nc2nc(C)cc(-c3cnn4nc(OC)ccc34)n2)cc(C(F)(F)F)c1", "test": "inhibitor", "setting": "1 µM", "scale": "baseline: control", "quantity": "remaining activity", "result": "71%"}
{"SMILES": "Cc1cccc(O[C@H]2CCC[C@@H](C(C)CNCc3ccncc3)C2)c1 (relative stereo)", "test": "kinase activity, kinome panel screening", "setting": "10 µM", "quantity": "inhibition", "result": "-2%"}
{"SMILES": "CCn1cc(C(=O)O)c(=O)c2c(N)c(F)c(NC3CCCCC3)cc21", "test": "kinase activity", "setting": "0.1 µM, together with: ATP at Km", "quantity": "inhibition", "result": "-0.4%"}
{"SMILES": "C=CC(=O)N1CCCC(n2c(=O)c3ncccc3n(Cc3ccc(Oc4ccccc4)cc3)c2=O)C1 (stereo not drawn)", "test": "cell-free assay, competition with immobilised ligand", "setting": "1 µM", "quantity": "remaining binding", "result": "77%"}
{"note": "For quick reference, copied from above:"}
{"SMILES": "CS(=O)(=O)Nc1cccc(-c2csc3cnc(Nc4ccc(N5CCN(CCCCCOc6cccc7c6C(=O)N(C6CCC(=O)NC6=O)C7=O)CC5)cc4)nc23)c1 (stereo not drawn)", "test": "probe labelling, inhibitor, KiNativ chemoproteomics", "test system": "MOLT-4", "setting": "1 µM", "quantity": "inhibition", "result": "21.1%"}
